Results of several laboratories.
Protocols differ between the studies behind these lines. Numbers after ± are the reported error.
Genome polyprotein NS2B-NS3 protease: Genome polyprotein, NS2B-NS3 protease (dengue virus type 2, UniProt P29990)

Substance | tested on | assay | system | conditions | quantity | result
CC(C)(COP(=O)(O)OP(=O)(O)OC[C@H]1O[C@@H](n2cnc3c(N)ncnc32)[C@H](O)[C@@H]1OP(=O)(O)O)[C@@H](O)C(=O)NCCC(=O)NCCSCC(=O)N[C@@H](CO)C(=O)NCC(=O)N[C@@H](CCCNC(=N)N)C(N)=O | N-alpha-acetyltransferase 40 (NAA40, Homo sapiens, UniProt Q86UY6) | inhibitor |  |  | Ki | 0.0037 ± 0.00071 µM
C=CCN1CCC2(C)c3cc(O)ccc3CC1C2C (single isomer, unassigned; (-)) | Sigma non-opioid intracellular receptor 1 (Sigmar1, Mus musculus, UniProt O55242) |  |  | pH 8 | IC50 | 3.95 ± 0.616 µM
CC(C)(C)c1nn(-c2cc(OCc3cn(Cc4cccc(C(F)(F)F)c4)nn3)c(Cl)cc2Cl)c(=O)o1 | Toxoplasma gondii | intracellular growth | HFF, Δppo knockout | 96 h | IC50 | 21 ± 4.9 µM
CN[C@@](C)(C[18F])C(=O)O | MDA-MB-468 tumour model |  | host not given, lung | 2 h, tumour-bearing | tracer uptake | 1.1 %ID/g
C[C@@H]1CC[C@H]2[C@@H](C)C(=O)O[C@@H]3O[C@@]4(C)CC[C@@H]1[C@]32OO4 | HEK293 NF-κB luciferase reporter | NF-κB reporter gene, antagonist |  | 24 h, together with: TNFα 5 ng/mL | EC50 | > 100000 nM
CC(C)(C)c1nn(-c2cc(OCc3cn(Cc4ccc(Cl)cc4)nn3)c(Cl)cc2Cl)c(=O)o1 | Toxoplasma gondii | intracellular growth | HFF, Δppo knockout | 96 h | IC50 | 28.8 ± 6.3 µM
Nc1cc(N)c(N=Nc2ccc(S(=O)(=O)Nc3nccs3)cc2)cc1N=Nc1ccc(S(=O)(=O)Nc2nccs2)cc1 | Genome polyprotein NS2B-NS3 protease | enzyme activity, inhibitor | Dengue virus | pH 8.0, together with: 20 µM Pyr-RTKR-AMC | IC50 | 2.75 µM
O=c1[nH]c2ccccc2n1C1CCN(Cc2ccc(-c3nc4cc5[nH]cnc5cc4nc3-c3ccccc3)cc2)CC1 | HeLa expressing Luc-ODC | Luc-ODC degradation, inhibitor, cycloheximide chase luciferase |  |  | IC50 | 2.9 ± 0.4 µM
CC(=O)C(N=Nc1ccc(S(=O)(=O)Nc2ccccn2)cc1)C(=O)Nc1ccc(Cl)cc1 (stereo not drawn) | Genome polyprotein NS2B-NS3 protease | enzyme activity, inhibitor | Dengue virus | pH 8.0, together with: 20 µM Pyr-RTKR-AMC | IC50 | > 10 µM
CC(=O)c1ccc(Cn2cc(COc3cc(-n4nc(C(C)(C)C)oc4=O)c(Cl)cc3Cl)nn2)cc1 | Toxoplasma gondii | intracellular growth | HFF, Δppo knockout | 96 h | IC50 | 31.9 ± 7.7 µM
CCCCC/C=C\C/C=C\C/C=C\C/C=C\CCCC(=O)OC(CO)CO | Cannabinoid receptor 2 (CNR2, Homo sapiens, UniProt P34972, Q63R) | β-arrestin 2 recruitment, agonist, BRET | HEK293 coexpressing GRK1 |  | EC50 | 1660 nM
CC(=O)C[C@@H](c1ccccc1)c1c(O)c2ccc(O)cc2oc1=O |  | substrate, item: 7-hydroxywarfarin 4'-glucuronide | pooled human liver microsomes |  | Ki | 2840 µM
CC(C)(C)c1nn(-c2cc(OCc3cn(Cc4ccc(C(F)(F)F)cc4)nn3)c(Cl)cc2Cl)c(=O)o1 | Toxoplasma gondii | intracellular growth | HFF, Δppo knockout | 96 h | IC50 | 28.4 ± 6.3 µM
Clc1cc(OCc2nnc3sc(Cc4ccccc4)nn23)c(Cl)cc1OCc1nnc2sc(Cc3ccccc3)nn12 | Genome polyprotein NS2B-NS3 protease | enzyme activity, inhibitor | Dengue virus | pH 8.0, together with: 20 µM Pyr-RTKR-AMC | IC50 | > 10 µM
CCCCN1C(=O)C(C=CC=CC=C2C(=O)N(c3ccc(S(=O)(=O)O)cc3)N=C2C)C(=O)N(CCCC)C1=O | SLC4A1 (Homo sapiens, UniProt P02730) | chloride exchange, 36Cl flux, item: outward-facing iodide-loaded transporter |  | 0 °C, Dixon plot, initial binding | Ki | 0.36 ± 0.07 µM
CCN(CC)C(=O)Cn1c2ccccc2c2ccccc21 | Translocator protein, A147T (TSPO, Homo sapiens, UniProt P30536) | radioligand binding |  | together with: [3H]PK11195 | Ki | 0.177 ± 0.0416 µM
O=C1C(Cl)=C(Nc2ccc(S(=O)(=O)Nc3ccccn3)cc2)C(=O)c2ccccc21 | Proteasome component C5/PSMB5 (Homo sapiens, UniProt P20618+P28074) | chymotrypsin-like activity, inhibitor | primary multiple myeloma cells, patient | 24 h, range over sample A patients | IC50 | 1.3 ± 0.19 µM
CCOc1ccc2cc(-c3nn(C(C)(C)C)c(N)c3C(N)=O)cnc2c1 | CDPK1 (Sarcocystis neurona) | kinase activity, inhibitor, Kinase-Glo |  | 90 min, 30 °C, together with: 10 µM ATP | IC50 | 0.002 µM
C[C@H](CCC(=O)NCC(=O)O)[C@H]1CC[C@H]2[C@@H]3[C@H](O)C[C@H]4C[C@H](OC(=O)c5cccnc5)CC[C@]4(C)[C@H]3CC[C@]12C | Ileal sodium/bile acid cotransporter (SLC10A2, Homo sapiens, UniProt Q12908) | taurocholate uptake, inhibitor | MDCK expressing SLC10A2 |  | Ki | < 25 µM
CC(C)(C)c1ccc(S(=O)(=O)/C=C/C#N)cc1 | C2C12 myotubes | NF-κB reporter gene, inhibitor |  | 24 h, together with: TNF-α 10 ng/mL | IC50 | 6.31 µM
cGMP | Potassium/sodium hyperpolarization-activated cyclic nucleotide-gated channel 2, C-terminal region (Hcn2, Mus musculus, UniProt O88703) | binding, isothermal titration calorimetry |  | C-linker/CNBD tetramer, site 4 | Kd | 6.13 µM

Excerpt of the above:
Substance | tested on | assay | system | conditions | quantity | result
CC(C)(C)c1nn(-c2cc(OCc3cn(Cc4cccc(C(F)(F)F)c4)nn3)c(Cl)cc2Cl)c(=O)o1 | Toxoplasma gondii | intracellular growth | HFF, Δppo knockout | 96 h | IC50 | 21 ± 4.9 µM
CN[C@@](C)(C[18F])C(=O)O | MDA-MB-468 tumour model |  | host not given, lung | 2 h, tumour-bearing | tracer uptake | 1.1 %ID/g
C[C@@H]1CC[C@H]2[C@@H](C)C(=O)O[C@@H]3O[C@@]4(C)CC[C@@H]1[C@]32OO4 | HEK293 NF-κB luciferase reporter | NF-κB reporter gene, antagonist |  | 24 h, together with: TNFα 5 ng/mL | EC50 | > 100000 nM
